Results pooled from the literature.
Each numbered part is a random draw from the data of one study; scales do not carry over between parts. Positions count from the first letter of the parent shown.

Block 1
Target: CCNB3, cyclin fold, Cln2 fusion (human)
Technique: yeast growth competition, sequencing
Matrix: yeast
Notes: weak parent motif
Relative to: not given
Direction: higher = stronger binding
Parent: MICAL3 docking peptide (human); LQLRRQLSFSEDS; partner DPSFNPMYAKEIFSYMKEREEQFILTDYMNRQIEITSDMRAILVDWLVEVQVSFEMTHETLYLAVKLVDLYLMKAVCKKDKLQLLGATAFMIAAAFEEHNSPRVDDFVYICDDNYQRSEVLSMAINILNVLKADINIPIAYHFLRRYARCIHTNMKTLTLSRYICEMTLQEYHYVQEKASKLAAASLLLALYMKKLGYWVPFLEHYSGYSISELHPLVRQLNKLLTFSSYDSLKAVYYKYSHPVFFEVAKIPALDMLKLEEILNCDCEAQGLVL
Change	normalised enrichment score
LQLRRQLSFKEDS [S10K]	0.242
LQLRWQLSFSEDS [R5W]	0.184
LQLRRQLSFEEDS [S10E]	0.252
LQLRRQLSFFEDS [S10F]	0.228
LWLRRQLSFSEDS [Q2W]	0.243
LQLRRQLVFSEDS [S8V]	0.283
LQLRRQPSFSEDS [L7P]	-0.0393
LQLRRQISFSEDS [L7I]	0.176
LILRRQLSFSEDS [Q2I]	0.0274
LQLRRQLSMSEDS [F9M]	0.0363
LQLRRQCSFSEDS [L7C]	0.0512
LQLRRQLSFSWDS [E11W]	0.288
LQDRRQLSFSEDS [L3D]	0.0434
LQLRLQLSFSEDS [R5L]	0.000814
LNLRRQLSFSEDS [Q2N]	0.125
LQLRRQFSFSEDS [L7F]	-0.394
LQMRRQLSFSEDS [L3M]	-0.148
LQLRRQLDFSEDS [S8D]	0.126
LQLRRQLSFSFDS [E11F]	-0.00764

Block 2
Target: RING finger protein unkempt homolog, zinc fingers 1-6, GST-SBP tag (UNK, Homo sapiens, UniProt Q9C0B0, residues 30-357)
Technique: RNA Bind-n-Seq
Form: RNA
Matrix: in vitro
Concentration: not given
Notes: RNA with constant flanks, human and mouse sites, ends assumed
Relative to: input RNA pool
Direction: higher = stronger binding
Shared flanks, not repeated: GGGAGUUCUACAGUCCGACGAUC … CAACAGAGGAUUGAGCAUCA
Construct (chain): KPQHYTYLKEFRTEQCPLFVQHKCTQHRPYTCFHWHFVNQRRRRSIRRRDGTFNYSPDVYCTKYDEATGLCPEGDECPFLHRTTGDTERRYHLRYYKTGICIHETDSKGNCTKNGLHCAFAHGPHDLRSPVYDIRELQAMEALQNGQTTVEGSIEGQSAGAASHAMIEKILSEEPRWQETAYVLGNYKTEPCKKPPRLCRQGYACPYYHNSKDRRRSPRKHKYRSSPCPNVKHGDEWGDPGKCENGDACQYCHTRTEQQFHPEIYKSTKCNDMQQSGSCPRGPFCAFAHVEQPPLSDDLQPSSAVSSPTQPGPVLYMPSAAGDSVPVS
Strand	bound/input enrichment
GUUACUGGGACCUUGGAGACCAAAUACAAGUGGUGUGAGUAUGGUCUGACUUUCACAGAAAAGUGGAACACUGAUAACACUCUGGGAACAGAAAUCGCAAUUGAAGACCAGAUUUGUCAA	0.125 ratio
GAUCCACAGUGGUCUGAGGAGCAACUCAUUGCUGCAAAAUUCUGUUUUGCUGGCCUUGUUAUAGGGCAGACUGAAGUGGACAUCAUGAGUCAUGCCACACAAGCUAUUUUUGAAAUUCUG	0.207 ratio
CAUGCUGAUCUGUGGCCAGCCAAACAAUACCCACUUGUCACGCCAAAUGAAGAGAGAAAUGUCAUGGAAGAGGGAAAAGACUUUCAGCCCUCAAGAUCUACAGCUCAACAGGAACUUGAU	0.0803 ratio
GAGCCCUAUGGCUUCCGCUCCUCAAUGCUAUUUGAUACAAUGCAACAUCAUCUGGCCUUGAAUAGAGAUUUGACUACAUCUAGUGUGGAGAAAGACAGCGGAGGGAAGACACCCGGAGAC	0.343 ratio
UCCGUCCGUCGGCUUCUCGUCUUGCUCUCUCUGGUCCCUCCGGAGGAGGCCGCCGCGCGUCUCCCGGGGAAGCAUGGCGAUGAAAGCGGUGUGCGUGCUGAAGGGCGACGGUCCGGUGCA	0.0714 ratio
AAGGAAAUGCUGGCUGCAAACCCUCAGGAUCGUCCAGAUGCUUUUGAACUAGAACUCAGAUUAGUACAAAUUGCAUUUAAAGAUAGCAGCUGGGAAACGUGACACAUAUUAUUUGCAAAU	4.54 ratio
AGCGGAGGCUCAGGAGCCAAGCCCUCAGACGCAGCAUCAGAAGCUGCUCGCCCAGCUACUAGUACUUUGAAUCGCUUCUCAGCCCUUCAACAAGCGGUACCCACAGAAAGCACAGAUAAU	0.297 ratio
GCCAGCCGAGACGGAUAUCCGAUUAUAUUAUAUGAAAUUCCUUCUGGACGUUUUAUGAGAGAAUUGUGUGGCCACCUCAAUAUCAUUUAUGAUCUCGACUGGUCAAAAGACGAUCGCUAU	0.23 ratio
UUGACAUUACAGCCAAGAUGGUGCUGUCCCAGAGACAACGAGAUGAACUAAAUCGAGCUAUAGCAGAUUAUCUUCGUUCAAAUGGCUAUGAAGAGGCAUAUUCAGUUUUUAAAAAGGAAG	0.279 ratio
GUGAGCUGUGUGCCUUGUUUGGGGGGUGUGGGGGACUUCUCCCAGUGGUGACACUGAACUUUAGGAGAAAAUGCGAAUGGGUAGGAGGACGGUCUUAUUUGAGUCACUUAAGGAGCAAGG	1.46 ratio
GAAUCUUCUGACAAUGAAGGUAGGCGUACAACUAGGAGAUUGCUGUCACGGAUAGCUUCUAGCAUGUCAUCUACUUUUUUCUCACGAAGAUCUAGUCAAGAUUCCUUGAAUACAAGAUCU	0.119 ratio

Block 3
Target: RNA binding protein fox-1 homolog 2, RRM domain, GST-SBP tag (RBFOX2, Homo sapiens, UniProt O43251-10, residues 100-194)
Technique: RNA Bind-n-Seq
Form: RNA
Matrix: in vitro
Concentration: 365 nM
Notes: natural RNA segment, single round, ends assumed
Relative to: no-protein control
Direction: higher = stronger binding
Shared flanks, not repeated: GGGAGUUCUACAGUCCGACGAUC … UGGAAUUCUCGGGUGCCAA
Target sequence (chain): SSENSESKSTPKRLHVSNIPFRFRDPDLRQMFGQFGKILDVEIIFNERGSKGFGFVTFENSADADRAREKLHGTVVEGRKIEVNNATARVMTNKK
Strand	RBNS enrichment (R)
UCUUCACCAUUCCUCCCAGCUCCACAUCUUAAGGAUGCUUACGGGAGACGAAGCUGUGUCAUCAAGAGCUCAGUGGGUGCGAGGAAAGUAUGAUCCAGCGCUCAGCCUUC	1.07
GUUCUCAAGGCUCUCUACAGGUUGCCUCUUGUACUCAGAAGUAUUAAACACUGAUUAUUAAACCUUCUGCGAUGCAGCCUUGACUUAUUUGUGGGAAAUCGCAAUCAGAG	0.38
CCGUGCCCGCCUGCAGUGGUUGGAGACGGGAGUGGCCCUUCGGCUCCCGAGCUCCCUCUGGGGACGGCUGGCUCACUGUCUCCAGUUCUCAAUGGCCAACGAAGGUGCUU	0.282
UCUUUUGCACUUUUCUUACCUGAUAAGUCUCCUCCACUGGCUUCAUCGGGCAGACUUUCUGCCACUGGCUUUUCAAACACUGUCAAUUGGGUUAUUUUUUUACACAGCUG	0.547
UCAUGAAAUGGUGGGUCCUUGGAAACCUCCUUUCCGUUCAGCUCUGCCUCUGUUCUUUCAACUCCUUUGAGGCUCAAAAAAAACACAAAGAUCAGAAGCCUUCAGAUAGA	0.395
ACAAGGAGAGGAGCUUGCUAAAGUUUAAAGUUUAUUUCAACGCUAAGAUCCCAACCUUCCGAUCUCUGCCUACUCUCAGACUUGGCCAGCCCUCUUGCCUGUCAUCCCAA	0.37
AAGAAGGUGGGAGGAUGUGAAUUGUUAGUUUCUGAGUUUUACCAAAUAAAGUAGAAUAUAAGAAGAAGGUACAUUUGUUUUUGCUUUUAUUCACCCUGCCCAGCUAUCCA	0.449
GGGGUUCAGACCUCCACAGGCUAGGUAGCUCAGCUUGCUUACAGACUGGAGACAUUUUCUUGUGUGGUUUUCUGGGUUUCGUCCUUCUGCAGCUGUCAUGGCUUUACAGU	0.203
GGAACACCGGAACAUCAUGCUCACCUGCCAUCACUAUGCAUCCAGUUCCCACAGCUUGUGUCGUGAAAGAGCAGAGAGAUGAUGUUAAACUCCUUGGGAGGAGAGAGGGC	0.325
GCUGAUGUUCGGUCCUGGCAAACAUUGAGUUAUUUUGAGCUGUGAAGGCAGUCGUCUCUGUUACACAGUGGCAGCUCUUGAGUUAUGCACUGUGAAGAAUGAGAAGGGAA	0.402
AGAAGCAUUGAAAACAAAGACAUUCUUCCCACUUCUUGGAUUUUUAAACCACAGUCUGGAGUGAUAGCUACUGUAGAAAGGAAAUAGACUUUGUAUGAACUCUUUAAGUU	0.612
UGCAGCUCAAAACAGUGCCUCCUGCCUCUUUAGAGCGGGGCUGCUCGGCAGCAGUGACUGCAGCCCCAGCUUGCUUAAGCAGUGUAACAGCAGGGAAGCGGGAGGAGCUG	0.332

Block 4
Target: Ras GTPase-activating protein-binding protein 1, C-terminal RGG region (G3BP1, Homo sapiens, UniProt Q13283)
UniProt Q13283, sequence (whole entry, looked up): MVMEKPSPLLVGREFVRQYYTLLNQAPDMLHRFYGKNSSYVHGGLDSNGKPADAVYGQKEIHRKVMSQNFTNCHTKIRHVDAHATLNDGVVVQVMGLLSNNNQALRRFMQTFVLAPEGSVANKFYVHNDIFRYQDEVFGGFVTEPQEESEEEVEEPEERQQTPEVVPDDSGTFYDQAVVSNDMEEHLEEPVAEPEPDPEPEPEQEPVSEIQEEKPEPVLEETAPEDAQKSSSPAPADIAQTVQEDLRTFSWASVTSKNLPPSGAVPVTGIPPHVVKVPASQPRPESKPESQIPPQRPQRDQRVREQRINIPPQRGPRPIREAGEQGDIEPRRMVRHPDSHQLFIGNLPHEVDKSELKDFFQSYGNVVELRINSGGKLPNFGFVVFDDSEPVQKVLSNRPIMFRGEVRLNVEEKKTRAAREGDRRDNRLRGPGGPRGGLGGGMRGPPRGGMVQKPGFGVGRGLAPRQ
Technique: RNA Bind-n-Seq
Form: RNA
Matrix: in vitro
Concentration: 1 µM
Notes: whole 134-nt RNA, ends assumed
Together with: 150 mM KCl
Relative to: input library
Direction: higher = stronger binding
Shared flanks, not repeated: GGGAGUUCUACAGUCCGACGAUC … UGGAAUUCUCGGGUGUCAAGG
Strand	log2 enrichment
GUCCUGUGCUACACAUCGUAUGUACCGAAUCGGUUUUUUGGGUUUUUUGGUUUUUUGGAAAGUAUUAUGUUACGCCGUUCGGAUCUGCAC	-1.27
ACCAUGCAGGUGGGCAUCUUUGGGAAGUGGGGCAAGGGGGGGAUAGGGAGGGGGGUAACACUUUGGGAACUGGUGGUCCCAGGUCGUUUC	2.02
AAGUCCUGUGCUACACAUCGUAUGUACCGAAUCGGGGUUUGGUUUGGGGUUUGGGGAAAGUAUUAUGUUACGCCGUUCGGAUCUGCACUU	-0.183
UCCUGUGCUACACAUCGUAUGUACCGAAUCGGUUUUUUUGGUUUUUUUGGUUUUUUUGGAAAGUAUUAUGUUACGCCGUUCGGAUCUGCA	-0.724
UGUGCUACACAUCGUAUGUACCGAAUCGGGGAAAAAAAGGGAAAAAAAGGGGAAAAAAAGGGGAAAGUAUUAUGUUACGCCGUUCGGAUC	-0.88
ACCAUGCAGGUGGGCAUCUUUGGGAAGUGAAACAAGGGGGGGAUAGGGAGGGGGGUAACACUUUGGGAACAGGUGGUCCCAGGUCGUUUC	-1.27
GCAGGAAGUAAAAACAAAUGGAAAUGCUUCGGAUAGUGGCAGGGGUGGGGGUUGCUAAGGAAAGGGUGGGAUGGGAGUGGGUAAAGAUUU	0.554
UCCUGUGCUACACAUCGUAUGUACCGAAUCAAAUUUAAAUUUUUUUAAACCCCCCCAAAAAAGUAUUAUGUUACGCCGUUCGGAUCUGCA	-0.568
ACCAUGCAGGUGGGCAUCUUUGGGAAGUGGGGCAAGGGGGGGAUAGGGAGGGGGGUAACACUUUGGGAACAGGUGGUCCCAGAUCGUUUC	1.62
GUCCUGUGCUACACAUCGUAUGUACCGAAUCAAACCCCCCCAAACCCCCAAAUUUAAAAAAGUAUUAUGUUACGCCGUUCGGAUCUGCAC	-0.726
UCAAGUCCUGUGCUACACAUCGUAUGUACCGAAUCGGAAAAAAAGGUGGAAAGGAAAGUAUUAUGUUACGCCGUUCGGAUCUGCACUUCC	-1.41
AAGUCCUGUGCUACACAUCGUAUGUACCGAAUCGGUUUUUUUGGUUUGGAAAAAGGAAAGUAUUAUGUUACGCCGUUCGGAUCUGCACUU	-2.19
AAGUCCUGUGCUACACAUCGUAUGUACCGAAUCAAAUUUAAAUUUUUAAAUUUAAAAAAGUAUUAUGUUACGCCGUUCGGAUCUGCACUU	-2.86
GCAGGAAGUAAAAACAAAUGGAAAUGCUUCGGACAGUGGCAGGGGUGGGGGUUGCUAAGGAAAGGGUGGGAUGGGAGUGGGUAAAGAGUU	1.27

For quick reference, copied from above (block 4):
Strand	log2 enrichment
ACCAUGCAGGUGGGCAUCUUUGGGAAGUGGGGCAAGGGGGGGAUAGGGAGGGGGGUAACACUUUGGGAACUGGUGGUCCCAGGUCGUUUC	2.02
AAGUCCUGUGCUACACAUCGUAUGUACCGAAUCGGGGUUUGGUUUGGGGUUUGGGGAAAGUAUUAUGUUACGCCGUUCGGAUCUGCACUU	-0.183
UCCUGUGCUACACAUCGUAUGUACCGAAUCGGUUUUUUUGGUUUUUUUGGUUUUUUUGGAAAGUAUUAUGUUACGCCGUUCGGAUCUGCA	-0.724
UGUGCUACACAUCGUAUGUACCGAAUCGGGGAAAAAAAGGGAAAAAAAGGGGAAAAAAAGGGGAAAGUAUUAUGUUACGCCGUUCGGAUC	-0.88
